Published values gathered from unrelated publications.
Compare with care: the assays were run in different laboratories. Numbers after ± are the reported error.

`C=CC(=O)Nc1cc(Nc2nccc(Nc3cc(Cl)c(F)cc3C(C)(C)O)n2)c(OC)cc1N1CC[C@@H](N(C)C)C1` has a Css,max of 976 ng/mL (human patients, plasma; oral, 400 mg daily, cycle 2 day 1, geometric mean).
`COc1cc(Nc2ncc3c(n2)-c2ccc(Cl)cc2C(c2c(F)cccc2OC)=NC3)ccc1C(=O)O`: “patients with adverse event” 21% (item: Cough, grade 1; cancer patients, phase 1/2; oral, dose not given, added: pembrolizumab).
With `Cc1ccc(NS(=O)(=O)c2cc(C(=O)Nc3ccccc3C(=O)N3CCOCC3)ccc2Cl)c(C)c1` the logP was 1.17 (octanol/buffer; pH 11, known kinase inactives set).
`C[C@@H](Oc1cc(-c2cnn(C3CCNCC3)c2)cnc1N)c1c(Cl)ccc(F)c1Cl` — result for “dose-normalised Cmax, geometric mean”: 1 ng/mL/mg (patients, plasma; oral, dose not given, cycle 2 day 1, added: avelumab).
`Cc1cc(-c2nccc3c2ccn3CC(=O)Nc2ccc(-c3cnccn3)cn2)ccn1` gave a post-procedural inflammation of 0% (human; 15 mg once daily, multiple ascending dose).
For `CCc1cc(C(=O)NC)c2nccc(N3CCc4c(cc(Cn5ccnc5)cc4-c4cn(C)nc4C(F)(F)F)C3=O)c2c1`, the blood CHCM was 306 ± 5.2 g/L (Sprague Dawley rats; oral, 100 mg/kg once daily, 7 days).
Under “loss by adsorption”, `Cc1cc(=O)n(-c2ccccc2)n1C` is recorded as 8.2 ± 4.3% (empty perfusion, no placenta; maternal circuit tubing; 5 µM, 360 min; reference: initial amount).
`Cn1c(=O)c2[nH]cnc2n(C)c1=O` has a CSF concentration of 43.9 nM (human, both sexes, cerebrospinal fluid; dose not given, median).
`CNCc1ccc(-c2[nH]c3cc(F)cc4c3c2CCNC4=O)cc1` — result for “decreased appetite incidence”: 26.9% (patients; oral, 600 mg twice daily, grade 1).
With `Cn1c(=O)oc2ccc(-c3ccc(C[C@@H](C#N)NC(=O)[C@@H]4CNCCCO4)cc3)cc21` the Vd/F was 492 L (human, severe renal impairment, plasma; oral, 25 mg single dose, mean).
`C[C@@H]1Cc2c(ccc3[nH]ncc23)[C@@H](c2ccc(NC3CN(CCCF)C3)cn2)N1CC(F)(F)F` — result for “total brain concentration”: 0 nmol/L (mouse, non-tumour-bearing, brain; oral, dose not given, 7 days daily, added: fulvestrant s.c.).
The plasma concentration of `Cc1c(C(=O)O)ccc2c3n(nc12)[C@@H]1[C@H](C3)N(CC2CC2)[C@@]2(C(=O)Nc3cc(Cl)ccc32)[C@H]1c1cccc(Cl)c1F` is reported as 1000 nM (female BALB/c nude mice, SJSA-1 xenograft, plasma; oral, 1 mg/kg twice daily, 14 h).
`O=C(c1cccnc1-c1ccncc1)N1CCC(O)(Cc2ccccc2)CC1` gave an AUC(0-inf)/dose of 6.54 ng·h/mL/mg (healthy Japanese adults, plasma; oral, 600 mg single dose).
Under “subjects with adverse event”, `CC(C)(C(=O)N1CCOc2c(C#N)cncc2C1)C(F)F` is recorded as 0% (item: Palpitations; human; oral, 15 mg twice daily, 14 days, multiple ascending dose).
Under “incidence of decreased appetite”, `NC1(C(=O)N[C@@H](CCO)c2ccc(Cl)cc2)CCN(c2nc[nH]c3nccc2-3)CC1` is recorded as 0% (metastatic CRPC patients; 320 mg b.i.d., grade 3 to 4, treatment-related, added: enzalutamide 160 mg daily).
`N#Cc1ccc2c(c1)[C@H]1CCCN(C(=O)c3ccc4[nH]cnc4c3)[C@H]1C2`: “ACTH level change” 2.4 pmol/L (human; 360 mg, day 15; reference: baseline).
The zeta potential of `CCCCC/C=C\C/C=C\CCCCCCCC(=O)OCC(COC(=O)CCC(OCCCCCCCC)OCCCCCCCC)COC(=O)OCCCN(CC)CC` (stereo not drawn) is reported as 4.31 mV (pH 5.5, formulated).
The logP of `O=C(NO)[C@H]1CSC(c2ccc(OC(F)(F)F)c(Cl)c2)=N1` is reported as 1.24 (octanol/buffer; pH 11).
The unbound AUCinf of `CCO[C@H]1CCN(Cc2c(OC)cc(C)c3[nH]ccc23)[C@H](c2ccc(C(=O)O)cc2)C1` is reported as 3930 ng·h/mL (human healthy controls, plasma; oral, 200 mg single dose, mean).
For `O=C(O)c1cccc(CSc2nnc(-c3ccncc3)o2)c1`, the logP was -0.73 (octanol/buffer; pH 11, known kinase inactives set).
`O=C1CC[C@H](N2Cc3cc(N4CCN(CC5CCN(c6ccc([C@@H]7c8ccc(O)cc8CC[C@@H]7c7ccccc7)cc6)CC5)CC4)ccc3C2=O)C(=O)N1`: “participants with TRAE dry skin” 0% (human; oral, 200 mg, added: dabigatran etexilate 75 mg).

For quick reference, copied from above:
The unbound AUCinf of `CCO[C@H]1CCN(Cc2c(OC)cc(C)c3[nH]ccc23)[C@H](c2ccc(C(=O)O)cc2)C1` is reported as 3930 ng·h/mL (human healthy controls, plasma; oral, 200 mg single dose, mean).
For `O=C(O)c1cccc(CSc2nnc(-c3ccncc3)o2)c1`, the logP was -0.73 (octanol/buffer; pH 11, known kinase inactives set).
